Assay results from different studies.
Lines come from different studies, so protocols differ. “And” joins repeats or separate records; there may be more than shown. ± marks the error that the study gave.

Cc1cc(Nc2ncc(Cl)c(Nc3ccccc3S(=O)(=O)C(C)C)n2)c(OC(C)C)cc1C1CCNCC1  log2 fold change (CLB-GE; phosphoproteomics LC-MS/MS, item: FNBP1L phosphorylation; 200 nM, 60 min; baseline: untreated): -2.35
CSc1cc(Oc2ccnc3[nH]c(=O)cnc23)ccc1NC(=O)Nc1cc(C(C)(C)C)nn1-c1ccccc1  phospho-Met/total Met ratio (patient-derived cell lines, mean of three; RPPA; 1 µM, 4 h; baseline: DMSO): 0.75
CC1=CC[C@H]2[C@@H]([C@@H]1CC[C@H]1[C@]3(C)CC[C@H](O)C(C)(C)O[C@H]3CC[C@]1(C)O)C(C)(C)CC[C@]2(C)O  intracellular [3H]-paclitaxel remaining (KB-C2 (P-gp overexpressing); drug efflux; 10 µM, 120 min): 56.4%
Nc1nc(N)c2nc(CNc3ccc(C(=O)c4ccccc4)cc3)cnc2n1  mitochondrial toxicity (786-O; high-content imaging, item: MitoTracker Red uptake; 10 µM): 9.52 ± 10.3%
O=C(/C=C/C=C/C=C/C1CCCCC1)NC1=C[C@@](O)(/C=C/C=C/C=C/C(=O)NC2=C(O)CCC2=O)[C@@H]2O[C@@H]2C1=O  GI50 (hs852t; cell growth, inhibitor, CellTiter-Glo luminescence; 78 h; baseline: day 0 cell count): 17.2 µM
N#Cc1ccc(COC[C@H]2O[C@@H](n3c(NCc4ccc(Cl)c(Cl)c4)nc4c(N)ncnc43)[C@H](O)[C@@H]2O)cc1  fold change in IC50 (HD-MB03; concentration not given, with: ribociclib NG; baseline: ribociclib over DMSO): 1.82
Cc1ccc2[nH]c(=O)c(CNC3CCCCC3)cc2c1  Ca2+ mobilisation (COS-7, untransfected; 500 µM, relative to vehicle, unit not given; baseline: 3 µM ionomycin response): 14.1 ± 0.15
Cc1cnc(NC2CCOCC2)nc1-n1cnc(C(=O)NC(CN)c2cc(F)cc(Cl)c2)c1 (centres unmarked)  G2 phase cells (A-375; flow cytometry; 1 µM, 24 h): 3.2%
Cn1cc(-c2ccc(-c3cncc(Cl)c3N3CCC4(CCNC4=O)CC3)cc2)cn1  log2 fold change (COLO 205; gene expression, microarray, item: TIMP2 mRNA; concentration not given, 2 h; baseline: untreated cells): 2.58
C[C@H]1[C@@H](O)O[C@@H]2O[C@@]3(C)CC[C@H]4[C@H](C)CC[C@@H]1[C@@]24OO3  viable cells (THP-1; annexin V/PI flow cytometry, item: annexin V-/PI-; 0.4 µM, 24 h): 96.4%
COc1cc2ncnc(Nc3ccc(Oc4ccccc4)c(C)c3C)c2cc1OC.Cl  fractional effect (LoVo (KRAS G13D); cell viability, resazurin; 3 µM, 72 h, with: trametinib 0 nM; baseline: DMSO): 0.273 and 0.296
c1ccc2[nH]ccc2c1  mRNA level, LS mean (HCT-8; RNA-seq, item: SOCS1; concentration not given): 10.3 counts per million
CC1(C)OCCn2c1nc1c(N3CCOCC3)nc(-c3cnc(N)nc3)nc12  IC50 (HD-MB03; cell growth; 168 h, single agent): 0.513 µM
N[C@@H](C(=O)N[C@@H]1C(=O)N2C(C(=O)O)=C(Cl)CS[C@H]12)c1ccccc1  reversal of trafficking deficit (primary rat hippocampal/cortical neuron-glia cultures; 1 µM, with: 1 µM α-synuclein oligomers): 17.9%
C[C@H]1Oc2cc(cnc2N)-c2c(nn(C)c2C#N)CN(C)C(=O)c2ccc(F)cc21  Emax (NCI-H3122 (EML4-ALK variant 1); cell viability): 71.2%
CCCn1c(=O)c2[nH]c(-c3ccc(OCC(=O)Nc4ccc(C#N)cc4)cc3)nc2n(CCC)c1=O  ERK1/2 activation (H9c2; agonist; concentration not given, 20 min, A2B receptor-mediated, with: pertussis toxin overnight): inhibited
COc1ccc(-n2nc(C(C)=O)s/c2=N\N=C(/C)c2ccc(NC(=O)c3ccccc3)cc2)cc1  toxicity (MCF7; 5 µM): 97.5%
CSCC[C@H](NC(=O)[C@H](Cc1ccc(OS(=O)(=O)O)cc1)NC(=O)[C@@H](N)CC(=O)O)C(=O)NCC(=O)N[C@@H](Cc1c[nH]c2ccccc12)C(=O)N[C@@H](CCSC)C(=O)N[C@@H](CC(=O)O)C(=O)N[C@@H](Cc1ccccc1)C(N)=O  cAMP accumulation (HEK293T control virus; agonist, GloSensor cAMP; 2000 nM, no receptor expressed; higher = more cAMP): 0.222 a.u.
CCN(c1cc(-c2ccc(CN3CCOCC3)cc2)cc(C(=O)NCc2c(C)cc(C)[nH]c2=O)c1C)C1CCOCC1  IC50 (HD-MB03; 168 h): inactive
CCN(c1nc(N)c(C(=O)NC(=N)N)nc1Cl)C(C)C  reduction of PS-positive cells (HMC3; endocytosis, flow cytometry; 30 µM, 2 h pretreatment then 3 h, with: FITC-PS 0.2 mg/mL): 6.4%
Cc1ccc(-c2cc3ccccc3c(N)n2)cc1  early apoptotic cells (Jurkat; annexin V-FITC/PI flow cytometry, item: annexin V+ PI-; 5.0 µM, 72 h): 13.6%
CC(=O)O[C@H]1C(=O)[C@@]2(C)[C@H]([C@H](OC(=O)c3ccccc3)[C@]3(O)C[C@H](OC(=O)[C@H](O)[C@@H](NC(=O)c4ccccc4)c4ccccc4)C(C)=C1C3(C)C)[C@]1(OC(C)=O)CO[C@@H]1C[C@@H]2O  resistance index (PC-3/TxR; MTS; baseline: IC50 PC-3/TxR over PC-3): 389
Nc1cccc2c1C(=O)N(C1CCC(=O)NC1=O)C2=O (centres unmarked)  apoptotic cells (patient CD138+ cells; flow cytometry, item: annexin V and PI; 1 µM, autologous CD8+ T-cell co-culture): 5.43% and 5.67% and 8.57% and 12.6%
Sc1ncnc2nc[nH]c12  DNA radioactivity (HL-60; radioactive counts; 0.5 µM, 14C-labelled compound; higher = more incorporation): 94.3 a.u.
O=c1[nH]nc(OCCCc2ccc(Cl)cc2)c(NCc2cccnc2)c1Br  log2 fold change (HEK293T; RNA-seq, item: CEBPB mRNA; 10 µM, 6 h; baseline: vehicle): 1.35
O=C(C[C@@H](C(F)F)n1ccc(F)n1)N1CCC(O)(Cn2cnc3c(cnn3-c3ccc(F)cc3)c2=O)CC1  cells in G1 phase (CHP-212 parental (wild-type USP7); PI flow cytometry; 0.1 µM, 24 h): 65.2% and 66.5% and 67.7%
CCn1cc(-c2cc(Cn3ccoc3=N)cc3c2CCN([C@@H](C)c2cc(OC)ccn2)C3=O)c(C(F)(F)F)n1  EC50 (HT115; cell growth, inhibitor; 120 h): 0.154 µM
CC(=O)c1c(C)c2cnc(Nc3ccc(N4CCNCC4)cn3)nc2n(C2CCCC2)c1=O  IC50 (HD-MB03; cell growth; 168 h, DMSO): 0.714 µM
[Cl-].[Cl-].[Os+2].c1cnc2c(c1)ccc1cccnc12.c1cnc2c(c1)ccc1cccnc12.c1cnc2c(c1)ccc1cccnc12  TGI (SK-MEL-28; cell growth, SRB; dark, normoxia): 277 µM
CC/C(=N\NC(=O)C(C)Nc1ccccc1)c1ccc(O)c(C)c1O (centres unmarked)  protein level (SK-OV-3; Western blot, item: TAZ; 10 µM, 1 h, 2D culture, unit not given; baseline: β-actin): 1.41 ± 0.09
O=C(O)CN(c1ccc(N(CC(=O)O)S(=O)(=O)c2ccc3c(c2)OCO3)c2ccccc12)S(=O)(=O)c1ccc2c(c1)OCO2  fold induction (HepG2-C8 ARE-luciferase reporter cells; ARE reporter activation, luciferase reporter; 10 µM, 24 h, 0.1% DMSO; baseline: vehicle control): > 2
CCCCc1oc2ccc(NS(C)(=O)=O)cc2c1C(=O)c1ccc(OCCCN(CCCC)CCCC)cc1  fold change (human embryonic stem cell aggregates; mRNA level, microarray, item: SFRP2; 0.5 µM, 120 h; baseline: untreated, up-regulated): 2.3 fold
NC(=O)c1cccc2c1O/C(=C\c1ccc(C(=O)NCCc3nc4ccccc4[nH]3)s1)C2=O  PARylation (SUM149; cellular PARylation, inhibitor, Western blot; with: H2O2): inhibited
Cc1nc(NC(=O)N2CCC[C@H]2C(N)=O)sc1-c1ccnc(C(C)(C)C(F)(F)F)c1  Hill coefficient GR curve (NCI-H1048; cell growth, CellTiter-Glo; 120 h): 1.21
CC(C)c1c2cc(-c3ccnc(NC4CCC(NC5CCOCC5)CC4)n3)ccc2nn1C (centres unmarked)  IC50 (HD-MB03; cell growth; DMSO): 0.153 µM
C=Cc1c2[n-]c(c1C)/C=c1\[n-]/c(c(C)c1C=C)=C\c1[n-]c(c(CCC(=O)O)c1C)/C=c1\[n-]c(c(C)c1CCC(=O)O)=C2.[Sn+4]  fold change (SH-SY5Y; RNA-seq, item: PLAT mRNA; 5 µM, 5 h; baseline: untreated cells): 2.23
COc1cc(C(=O)O)ccc1NC(=O)[C@@H]1N[C@@H](CC(C)(C)C)[C@](C#N)(c2ccc(Cl)cc2F)[C@H]1c1cccc(Cl)c1F  IC50 (HD-MB03; cell growth; 168 h, DMSO): 0.08 µM
Cn1c(Nc2nc3ccc(C(F)(F)F)cc3s2)nc2cc(C(=O)NCCOCCO)ccc21  fold change (SH-SY5Y; RNA-seq, item: DKK2 mRNA; 5 µM, 5 h; baseline: untreated cells): 2.25
